Measured values from different studies.
Organism: Bacillus subtilis

Structure (SMILES)	assay	system	setting	MIC
CC[C@H](C)[C@@H]1NC(=O)CNC(=O)[C@H](CCCCN)NC(=O)[C@H](C)NC(=O)[C@H](CCC(=O)O)NC(=O)[C@H](Cc2ccccc2)NC(=O)[C@H](CO)NC(=O)[C@H](CC(C)C)NC(=O)[C@H](C(C)C)NC(=O)[C@H](CC(=O)O)NC(=O)[C@@H](NC(=O)[C@@H](NC(=O)[C@@H](N)C(C)C)[C@@H](C)O)CSSC[C@@H]2NC(=O)[C@H](CO)NC(=O)CNC(=O)CNC(=O)[C@H](CCCCN)NC(=O)[C@H](CCCCN)NC(=O)[C@H](CCCNC(=N)N)NC(=O)[C@H](CC(C)C)NC(=O)[C@H](C)NC(=O)[C@H]([C@@H](C)CC)NC(=O)[C@H](C)NC(=O)[C@H](Cc3c[nH]cn3)NC(=O)[C@H](CC(C)C)NC(=O)[C@H](C)NC(=O)[C@H](CSSC[C@@H](C(=O)N[C@H](C(=O)N[C@@H](C)C(=O)N[C@@H](CCCNC(=N)N)C(=O)N[C@@H](CC(N)=O)C(=O)O)C(C)C)NC(=O)[C@H](C(C)C)NC(=O)CNC(=O)[C@H](CC(N)=O)NC(=O)[C@H](CCC(N)=O)NC2=O)NC(=O)[C@H](C)NC(=O)[C@H](CO)NC(=O)[C@H](Cc2c[nH]cn2)NC(=O)[C@H](CC(N)=O)NC(=O)[C@H](C(C)C)NC(=O)[C@H](C)NC1=O	broth microdilution	KCTC 3068	16 h, 37 °C	> 100 µM
CCCCCCCCCCCCCCCCCCCCCCSCC1OC(OC2C(N)CC(N)C(OC3OC(CN)C(O)CC3N)C2O)C(O)C(N)C1O (centres unmarked)		168 AAC(6')/APH(2'') plasmid		> 150 µg/mL
CN1C(=O)[C@@H]2NC(=O)[C@@H]3NC(=O)[C@@H](c4ccc(O)cc4)NC(=O)[C@H](NC(=O)C(NCc4cccc(F)c4F)c4ccc(O)cc4)Cc4c[nH]c5cc(ccc45)-c4cc3cc(c4O)Oc3ccc(cc3)C[C@H]1C(=O)N[C@@H](C(=O)O)c1ccc(O)c(c1)Oc1ccc2cc1 (some centres unmarked)		168, Mueller-Hinton broth		8 µg/mL
CN[C@@H]1[C@H](O)[C@H](NC)[C@H]2O[C@]3(O)[C@H](O[C@@H]2[C@H]1O)O[C@H](C)C[C@@]3(O)CNCc1ccccc1		ATCC 23857		3.1 µg/mL
CN1C(=O)[C@@H]2NC(=O)[C@@H]3NC(=O)[C@@H](c4ccc(O)cc4)NC(=O)[C@H](NC(=O)C(NCc4cc(C(F)(F)F)cc(C(F)(F)F)c4)c4ccc(O)cc4)Cc4c[nH]c5cc(ccc45)-c4cc3cc(c4O)Oc3ccc(cc3)C[C@H]1C(=O)N[C@@H](C(=O)O)c1ccc(O)c(c1)Oc1ccc2cc1 (some centres unmarked)		168, Mueller-Hinton broth		8 µg/mL
N=C(N)NCCC[C@@H]1NC(=O)[C@H](CCCNC(=N)N)NC(=O)[C@H](CCCNC(=N)N)NC(=O)[C@H](CCCNC(=N)N)NC(=O)[C@H](Cc2c[nH]c3ccccc23)NC(=O)[C@H](CCCNC(=N)N)NC(=O)[C@H](CCCNC(=N)N)NC(=O)[C@@H](N)CCn2cc(nn2)C[C@@H](C(N)=O)NC1=O		CMCC 63501	24 h, 37 °C	31.2 µg/mL
CC(C)C[C@H](NC(=O)[C@@H]1CSCC(=O)N[C@@H](CCCCN)C(=O)N[C@@H](CC(C)C)C(=O)N[C@@H](CCCCN)C(=O)N[C@H]2CCCCNC(=O)[C@H](CCCCN)NC(=O)[C@H](CC(C)C)NC(=O)[C@H](CCCCN)NC(=O)CSC[C@H](NC(=O)[C@H](CC(C)C)NC(=O)[C@H](CC(C)C)NC(=O)[C@H](CCCCN)NC2=O)C(=O)N[C@@H](CCCCN)C(=O)N[C@@H](CC(C)C)C(=O)N[C@@H](CCCCN)C(=O)N1)C(N)=O		BR 151	18 h	32 µg/mL
CC[C@H](C)[C@H](NC(=O)[C@H](CCCCN)NC(=O)[C@H](CCCNC(=N)N)NC(=O)[C@@H](NC(=O)[C@H](CC(C)C)NC(=O)[C@H](CCCCN)NC(=O)[C@H](CC(C)C)NC(=O)[C@@H](NC(=O)[C@H](CCCCN)NC(=O)CNC(=O)[C@H](Cc1ccccc1)NC(=O)[C@@H](N)Cc1ccccc1)C(C)C)[C@@H](C)CC)C(=O)N[C@@H](Cc1ccccc1)C(N)=O	broth microdilution			> 100 µM
CC(C)C[C@@H]1NC(=O)[C@H](CCCCN)NC(=O)CSC[C@@H](C(=O)N[C@@H](CCCCN)C(N)=O)NC(=O)[C@H](CC(C)C)NC(=O)[C@H](CC(C)C)NC(=O)[C@H](CC(C)C)NC(=O)[C@@H]2CSCC(=O)N[C@@H](CCCCN)C(=O)N[C@@H](CC(C)C)C(=O)N[C@@H](CCCCN)C(=O)N[C@@H](CCCCNC(=O)[C@H](CCCCN)NC1=O)C(=O)N[C@@H](CCCCN)C(=O)N[C@@H](CC(C)C)C(=O)N[C@@H](CC(C)C)C(=O)N2		BR 151	18 h	1 µg/mL
CN1C(=O)[C@@H]2NC(=O)[C@@H]3NC(=O)[C@@H](c4ccc(O)cc4)NC(=O)[C@H](NC(=O)C(NCc4cccc(C(F)(F)F)c4)c4ccc(O)cc4)Cc4c[nH]c5cc(ccc45)-c4cc3cc(c4O)Oc3ccc(cc3)C[C@H]1C(=O)N[C@@H](C(=O)O)c1ccc(O)c(c1)Oc1ccc2cc1 (some centres unmarked)		168, Mueller-Hinton broth		4 µg/mL
CC[C@H](C)[C@H](NC(=O)[C@H](CCCCN)NC(=O)[C@H](CC(N)=O)NC(=O)[C@H](Cc1c[nH]c2ccccc12)NC(=O)[C@H](Cc1ccccc1)NC(=O)[C@H](CCCCN)NC(=O)[C@H](CCCCNC(=N)N)NC(=O)[C@H](CC(C)C)NC(=O)[C@H](Cc1c[nH]c2ccccc12)NC(=O)[C@H](CCCCN)NC(=O)[C@H](CCCCNC(=N)N)NC(=O)[C@H](CC(C)C)NC(=O)CNC(C)=O)C(=O)N[C@@H](CCCCN)C(=O)N[C@@H](CCCCNC(=N)N)C(N)=O	broth microdilution	ATCC 6633		3.12 µM
CC(C)C[C@@H]1NC(=O)[C@H](CC(C)C)NC(=O)[C@H](CCCCN)NC(=O)CSC[C@@H]2NC(=O)[C@H](CC(C)C)NC(=O)[C@H](CCCCN)NC(=O)[C@H](CCCCNC1=O)NC(=O)[C@H](CC(C)C)NC(=O)[C@H](CC(C)C)NC(=O)[C@H](CCCCN)NC(=O)CSC[C@@H](C(N)=O)NC(=O)[C@H](CC(C)C)NC(=O)[C@H](CCCCN)NC(=O)[C@H](CCCCN)NC2=O		BR 151	18 h	16 µg/mL
CC[C@H](C)[C@H](N)C1=N[C@H](C(=O)N[C@@H](CC(C)C)C(=O)N[C@H](CCC(=O)O)C(=O)N[C@H](C(=O)N[C@H]2CCCCNC(=O)[C@H](CC(N)=O)NC(=O)[C@@H](CC(=O)O)NC(=O)[C@H](Cc3c[nH]cn3)NC(=O)[C@@H](Cc3ccc4ccccc4c3)NC(=O)[C@H]([C@@H](C)CC)NC(=O)[C@@H](CCCN)NC2=O)[C@@H](C)CC)CS1		168	18 h, 37 °C, together with: ZnSO4 0.3 mM	4 µg/mL
CC[C@H](C)[C@H](NC(=O)[C@H](NC(=O)[C@@H](CCCNC(=N)N)NC(=O)[C@@H](N)COC(=O)[C@@H](NC(=O)[C@@H](Cc1ccccc1)NC)[C@@H](C)CC)[C@@H](C)CC)C(=O)N[C@@H](CO)C(=O)N[C@H]1C(=O)N[C@@H](C)C(=O)N[C@@H](CC(C)C)C(=O)N[C@@H]([C@@H](C)CC)C(=O)O[C@H]1C	broth microdilution	ATCC 6051, Mueller-Hinton broth	16 h, 37 °C	0.0078 to 0.0156 µg/mL
CC(C)C[C@@H]1NC(=O)[C@H](CCCCN)NC(=O)CSC[C@@H]2NC(=O)[C@H](CC(C)C)NC(=O)[C@H](CC(C)C)NC(=O)[C@H](CCCCN)NC(=O)[C@H](CCCCNC(=O)[C@H](CCCCN)NC1=O)NC(=O)[C@H](CCCCN)NC(=O)[C@H](CC(C)C)NC(=O)[C@H](CCCCN)NC(=O)CSC[C@@H](C(=O)N[C@@H](CCCCN)C(N)=O)NC(=O)[C@H](CC(C)C)NC(=O)[C@H](CC(C)C)NC(=O)[C@H](CC(C)C)NC2=O		BR 151	18 h	32 µg/mL
CC(C)[C@H](NC(=O)[C@@H](NC(=O)[C@H](CCCCN)NC(=O)CNC(=O)[C@@H](NC(=O)[C@@H](NC(=O)[C@H](CO)NC(=O)[C@@H](NC(=O)[C@@H](NC(=O)[C@@H]1CCCN1C(=O)[C@@H](NC(=O)[C@@H](NC(=O)CN)C(C)C)C(C)C)C(C)C)C(C)C)C(C)C)C(C)C)C(C)C)C(N)=O	broth microdilution			> 100 µM
CC(C)C[C@H](NC(=O)[C@@H]1CSCC(=O)N[C@@H](CCCCN)C(=O)N[C@@H](CC(C)C)C(=O)N[C@@H](CC(C)C)C(=O)N[C@H]2CCCCNC(=O)[C@H](CC(C)C)NC(=O)[C@H](CC(C)C)NC(=O)[C@H](CCCCN)NC(=O)CSC[C@H](NC(=O)[C@H](CC(C)C)NC(=O)[C@H](CC(C)C)NC(=O)[C@H](CCCCN)NC2=O)C(=O)N[C@@H](CCCCN)C(=O)N[C@@H](CCCCN)C(=O)N[C@@H](CCCCN)C(=O)N1)C(N)=O		BR 151	18 h	16 µg/mL
CC[C@H](C)[C@H](NC(=O)[C@H](CCCN)NC(=O)[C@H](CC(N)=O)NC(=O)[C@H](CC(C)C)NC(=O)[C@H](Cc1ccccc1)NC(=O)[C@H](CCCN)NC(=O)[C@H](CCCNC(=N)N)NC(=O)[C@H](CC(C)C)NC(=O)[C@H](CC(C)C)NC(=O)[C@H](CCCN)NC(=O)[C@H](CCCNC(=N)N)NC(=O)[C@H](CC(C)C)NC(=O)CNC(C)=O)C(=O)N[C@@H](CCCN)C(=O)N[C@@H](CCCNC(=N)N)C(N)=O	broth microdilution	ATCC 6633		3.12 µM
c1ccc(CCNC2CCCc3c2[nH]c2ccc(C4CCCCC4)cc32)cc1 (centres unmarked)	microbial growth, broth dilution			2 µg/mL
CCCCCCSCC1OC(OC2C(N)CC(N)C(OC3OC(CN)C(O)CC3N)C2O)C(O)C(N)C1O (centres unmarked)		168 AAC(6')/APH(2'') plasmid		> 150 µg/mL

Repeated from above:
Structure (SMILES)	assay	system	setting	MIC
CN1C(=O)[C@@H]2NC(=O)[C@@H]3NC(=O)[C@@H](c4ccc(O)cc4)NC(=O)[C@H](NC(=O)C(NCc4cccc(C(F)(F)F)c4)c4ccc(O)cc4)Cc4c[nH]c5cc(ccc45)-c4cc3cc(c4O)Oc3ccc(cc3)C[C@H]1C(=O)N[C@@H](C(=O)O)c1ccc(O)c(c1)Oc1ccc2cc1 (some centres unmarked)		168, Mueller-Hinton broth		4 µg/mL
CC(C)[C@H](NC(=O)[C@@H](NC(=O)[C@H](CCCCN)NC(=O)CNC(=O)[C@@H](NC(=O)[C@@H](NC(=O)[C@H](CO)NC(=O)[C@@H](NC(=O)[C@@H](NC(=O)[C@@H]1CCCN1C(=O)[C@@H](NC(=O)[C@@H](NC(=O)CN)C(C)C)C(C)C)C(C)C)C(C)C)C(C)C)C(C)C)C(C)C)C(N)=O	broth microdilution			> 100 µM
CN[C@@H]1[C@H](O)[C@H](NC)[C@H]2O[C@]3(O)[C@H](O[C@@H]2[C@H]1O)O[C@H](C)C[C@@]3(O)CNCc1ccccc1		ATCC 23857		3.1 µg/mL
